# Results from different studies.
# Parts stem from different laboratories: compare values within a part only.
# Chain of UniProt P42336 (whole entry, unmodified, looked up): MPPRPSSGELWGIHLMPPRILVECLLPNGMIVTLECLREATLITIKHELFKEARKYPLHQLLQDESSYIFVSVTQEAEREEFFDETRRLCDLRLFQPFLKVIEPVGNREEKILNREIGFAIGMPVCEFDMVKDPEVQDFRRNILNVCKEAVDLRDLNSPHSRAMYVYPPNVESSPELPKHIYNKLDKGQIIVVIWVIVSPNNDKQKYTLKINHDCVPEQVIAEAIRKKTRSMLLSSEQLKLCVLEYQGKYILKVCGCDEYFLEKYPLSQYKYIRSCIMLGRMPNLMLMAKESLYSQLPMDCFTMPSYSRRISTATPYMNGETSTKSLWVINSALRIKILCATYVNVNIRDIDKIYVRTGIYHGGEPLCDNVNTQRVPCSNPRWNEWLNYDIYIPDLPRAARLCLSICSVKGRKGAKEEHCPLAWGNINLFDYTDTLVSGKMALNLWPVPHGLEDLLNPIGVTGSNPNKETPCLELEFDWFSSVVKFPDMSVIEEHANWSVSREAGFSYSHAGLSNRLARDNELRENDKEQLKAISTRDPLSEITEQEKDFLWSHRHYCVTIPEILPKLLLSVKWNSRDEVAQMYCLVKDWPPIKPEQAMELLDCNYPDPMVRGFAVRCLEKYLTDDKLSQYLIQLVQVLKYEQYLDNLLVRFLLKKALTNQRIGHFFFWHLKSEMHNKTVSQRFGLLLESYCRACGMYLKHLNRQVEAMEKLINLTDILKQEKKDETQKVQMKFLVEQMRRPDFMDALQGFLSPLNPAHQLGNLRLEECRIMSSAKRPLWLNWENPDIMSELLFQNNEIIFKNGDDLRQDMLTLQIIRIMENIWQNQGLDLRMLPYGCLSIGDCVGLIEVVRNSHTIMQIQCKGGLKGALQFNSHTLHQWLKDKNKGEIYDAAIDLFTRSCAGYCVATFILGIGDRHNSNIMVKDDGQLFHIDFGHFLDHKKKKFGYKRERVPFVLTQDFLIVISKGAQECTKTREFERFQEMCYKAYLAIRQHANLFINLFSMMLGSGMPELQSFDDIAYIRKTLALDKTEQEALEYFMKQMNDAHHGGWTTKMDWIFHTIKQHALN
# Chain of UniProt Q6XUX3 (whole entry, looked up): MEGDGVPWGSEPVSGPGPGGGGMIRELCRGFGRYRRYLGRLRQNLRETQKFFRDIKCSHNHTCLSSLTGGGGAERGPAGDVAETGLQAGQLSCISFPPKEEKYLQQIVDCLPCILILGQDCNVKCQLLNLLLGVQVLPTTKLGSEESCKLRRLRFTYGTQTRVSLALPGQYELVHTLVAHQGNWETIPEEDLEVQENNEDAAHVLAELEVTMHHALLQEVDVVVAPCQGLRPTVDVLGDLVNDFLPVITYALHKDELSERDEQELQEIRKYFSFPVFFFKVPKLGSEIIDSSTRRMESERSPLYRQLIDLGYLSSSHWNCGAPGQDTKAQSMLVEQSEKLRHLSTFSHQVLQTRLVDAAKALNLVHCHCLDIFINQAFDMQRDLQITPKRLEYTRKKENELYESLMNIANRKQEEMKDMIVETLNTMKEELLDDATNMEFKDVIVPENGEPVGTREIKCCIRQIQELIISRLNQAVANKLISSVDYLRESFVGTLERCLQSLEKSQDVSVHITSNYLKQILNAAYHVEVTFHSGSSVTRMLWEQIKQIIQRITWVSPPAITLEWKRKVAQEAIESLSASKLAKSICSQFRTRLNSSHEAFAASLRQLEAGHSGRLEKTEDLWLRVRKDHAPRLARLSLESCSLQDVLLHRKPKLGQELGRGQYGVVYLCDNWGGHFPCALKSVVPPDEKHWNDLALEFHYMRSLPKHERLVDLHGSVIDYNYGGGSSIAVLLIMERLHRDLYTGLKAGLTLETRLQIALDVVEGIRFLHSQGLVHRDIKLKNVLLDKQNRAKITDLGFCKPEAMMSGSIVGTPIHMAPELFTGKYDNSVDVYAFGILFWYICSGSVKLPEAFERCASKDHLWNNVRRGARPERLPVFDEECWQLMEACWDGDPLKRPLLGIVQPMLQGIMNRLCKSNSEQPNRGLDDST
# Chain of UniProt Q13237 (whole entry, looked up): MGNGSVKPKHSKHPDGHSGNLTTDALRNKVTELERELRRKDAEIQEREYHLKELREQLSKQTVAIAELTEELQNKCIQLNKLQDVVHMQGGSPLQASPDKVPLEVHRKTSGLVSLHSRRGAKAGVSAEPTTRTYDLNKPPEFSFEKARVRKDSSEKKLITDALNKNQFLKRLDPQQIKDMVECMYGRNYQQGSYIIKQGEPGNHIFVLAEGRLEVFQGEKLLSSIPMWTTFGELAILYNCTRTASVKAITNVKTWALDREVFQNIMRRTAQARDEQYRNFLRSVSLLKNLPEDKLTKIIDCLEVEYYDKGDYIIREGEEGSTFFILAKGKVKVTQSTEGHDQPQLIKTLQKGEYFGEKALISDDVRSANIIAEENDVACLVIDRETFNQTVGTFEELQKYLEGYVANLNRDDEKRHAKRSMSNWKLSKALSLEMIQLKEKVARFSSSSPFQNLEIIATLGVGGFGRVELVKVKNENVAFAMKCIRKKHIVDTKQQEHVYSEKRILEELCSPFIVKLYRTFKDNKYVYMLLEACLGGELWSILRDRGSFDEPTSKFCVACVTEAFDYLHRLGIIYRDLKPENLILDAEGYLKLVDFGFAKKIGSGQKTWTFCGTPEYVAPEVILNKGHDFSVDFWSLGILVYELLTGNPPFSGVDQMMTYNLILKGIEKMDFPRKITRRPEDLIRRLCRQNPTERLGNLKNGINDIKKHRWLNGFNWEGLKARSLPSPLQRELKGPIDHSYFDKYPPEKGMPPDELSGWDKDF
# Chain of UniProt P19525 (whole entry, looked up): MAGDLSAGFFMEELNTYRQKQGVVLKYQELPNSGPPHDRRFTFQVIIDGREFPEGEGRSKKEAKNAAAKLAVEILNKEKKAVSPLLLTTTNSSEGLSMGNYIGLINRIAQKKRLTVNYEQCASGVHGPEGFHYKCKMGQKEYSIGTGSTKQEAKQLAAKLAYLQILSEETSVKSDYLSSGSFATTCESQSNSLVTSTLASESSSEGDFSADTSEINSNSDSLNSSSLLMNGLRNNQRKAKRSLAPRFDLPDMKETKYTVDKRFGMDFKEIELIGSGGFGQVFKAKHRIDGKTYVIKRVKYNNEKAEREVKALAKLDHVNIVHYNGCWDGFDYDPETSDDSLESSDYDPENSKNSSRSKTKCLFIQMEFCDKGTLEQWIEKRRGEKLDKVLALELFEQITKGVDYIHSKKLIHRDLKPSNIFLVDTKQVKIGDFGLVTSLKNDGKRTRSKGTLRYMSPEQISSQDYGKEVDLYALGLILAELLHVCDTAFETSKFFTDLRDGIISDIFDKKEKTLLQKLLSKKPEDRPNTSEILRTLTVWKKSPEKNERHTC
# Chain of UniProt P51812 (whole entry, looked up): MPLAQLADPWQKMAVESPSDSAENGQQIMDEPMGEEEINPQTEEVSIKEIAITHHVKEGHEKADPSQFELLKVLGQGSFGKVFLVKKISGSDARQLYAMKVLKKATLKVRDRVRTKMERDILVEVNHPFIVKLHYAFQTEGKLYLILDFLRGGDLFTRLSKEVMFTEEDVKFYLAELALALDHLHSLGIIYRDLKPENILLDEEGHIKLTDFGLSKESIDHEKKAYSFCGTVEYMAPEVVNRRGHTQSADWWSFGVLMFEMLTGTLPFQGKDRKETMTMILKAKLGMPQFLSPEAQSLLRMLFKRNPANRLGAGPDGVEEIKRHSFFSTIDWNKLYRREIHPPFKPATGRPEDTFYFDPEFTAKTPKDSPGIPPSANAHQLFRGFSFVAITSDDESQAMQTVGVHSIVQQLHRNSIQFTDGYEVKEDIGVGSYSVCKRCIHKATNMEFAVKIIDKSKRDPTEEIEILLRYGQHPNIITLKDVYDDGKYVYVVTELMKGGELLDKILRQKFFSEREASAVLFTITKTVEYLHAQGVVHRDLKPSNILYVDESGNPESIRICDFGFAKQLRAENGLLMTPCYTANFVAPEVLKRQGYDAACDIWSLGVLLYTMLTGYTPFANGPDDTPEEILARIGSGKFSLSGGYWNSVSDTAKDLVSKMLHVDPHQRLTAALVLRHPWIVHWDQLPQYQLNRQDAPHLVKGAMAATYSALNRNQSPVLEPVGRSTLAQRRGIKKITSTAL

# Block 1 — technique: competition with immobilised ligand; tested at: 1 µM
# SMILES: C[C@@H]1CN(c2cc(-c3nn(C)c4ccc(OC5(C)CC5)cc34)ncn2)C[C@H](C)O1
target,assay,remaining binding [%]
"Homeodomain-interacting protein kinase 3 (HIPK3, Homo sapiens, UniProt Q9H422)",cell-free assay,91
"Tyrosine-protein kinase ABL1, phosphorylated (ABL1, Homo sapiens, UniProt P00519, Y253F)",cell-free assay,80
"Cyclin-dependent kinase 2 (CDK2, Homo sapiens, UniProt P24941)",cell-free assay,73
"Tyrosine-protein kinase ABL1, phosphorylated (ABL1, Homo sapiens, UniProt P00519)",cell-free assay,79
"Ephrin type-B receptor 2 (EPHB2, Homo sapiens, UniProt P29323)",cell-free assay,95
"Ribosomal protein S6 kinase alpha-3, C-terminal kinase domain (RPS6KA3, Homo sapiens, UniProt P51812)",cell-free assay,91
"Serine/threonine-protein kinase Nek4 (NEK4, Homo sapiens, UniProt P51957)",cell-free assay,60
"Phosphatidylinositol 4,5-bisphosphate 3-kinase catalytic subunit alpha isoform (PIK3CA, Homo sapiens, UniProt P42336, Q546K)",binding,39
"Receptor-type tyrosine-protein kinase FLT3 (FLT3, Homo sapiens, UniProt P36888, K663Q)",cell-free assay,100
"Dual serine/threonine and tyrosine protein kinase (DSTYK, Homo sapiens, UniProt Q6XUX3)",cell-free assay,67
"Vascular endothelial growth factor receptor 2 (KDR, Homo sapiens, UniProt P35968)",cell-free assay,75
"Interferon-induced, double-stranded RNA-activated protein kinase (EIF2AK2, Homo sapiens, UniProt P19525)",cell-free assay,100
"cGMP-dependent protein kinase 2 (PRKG2, Homo sapiens, UniProt Q13237)",cell-free assay,85

# Block 2 — species: human; matrix: microsomes or S9; tested at: 2 µM; time: 0.5 h
SMILES,remaining compound [%]
Cc1nc(S(=O)(=O)NCc2c3c(nn2C)CCC3)cn1C,37.4
CC1(C)Cc2c(c(N3CCOCC3)nc3sc4c(=O)n(CCc5ccccc5)cnc4c23)CO1,4.98
Cc1ccc2oc(=O)n([C@H]3c4cc(Br)cnc4OC(C)(C)[C@@H]3O)c2c1,89

# Block 3 — technique: aptamer microarray, sandwich; molecule type: DNA with 2'F-ANA; matrix: in vitro; tested at: 200 nM; added: Cy3 exosite-II aptamer, 400 nM; direction: higher = stronger binding; strand: GGTTGGTGTGGTTGG
# Target: Prothrombin, mature alpha-thrombin (F2, Homo sapiens, UniProt P00734)
# Notes: whole 15-mer aptamer, many near background
Modification,mean fluorescence intensity [a.u.]
2'F-ANA at 1 5 6 7 9 10 11 15,50.6
2'F-ANA at 2 4 5 6 8 10 11 12,51.8
2'F-ANA at 2 5 9 10 12 13,79.1
2'F-ANA at 2 10 11 12 14,99.6
2'F-ANA at 2 4 10 13 14,70.1
2'F-ANA at 2 4 5 6 9 10 11,89.3
2'F-ANA at 1 4 5 6 7 8 13 15,48.4
2'F-ANA at 2 3 9 12 13 14 15,362

# Block 4 — observed: enzyme activity; action: inhibitor; tested at: 0.5 µM; baseline: control
# Target: Receptor-type tyrosine-protein kinase FLT3 (FLT3, Homo sapiens, UniProt P36888)
SMILES,remaining activity
COc1ccc(-c2cnc3c(-c4ccsc4)cnn3c2)cc1,11.1%
CN(C)CCCn1cc(C2=C(c3c[nH]c4ccccc34)C(=O)NC2=O)c2ccccc21,5.6%
Nc1[nH]nc2nnc(-c3c(-c4ccccc4)nn4ccccc34)cc12,63.5%
O=C(Nc1ccc(Cl)cc1)c1ccccc1NCc1ccncc1,91.5%
O=c1cc(N2CCOCC2)oc2c1ccc1ccccc12,104%

# Further values, each from its own experiment
Molecule,target,assay,system,conditions,how to read,endpoint,value
"PhoQ, residues 284 288 289 292 302 303 TNSAEL","PhoP, residues 12 14 15 18 19 GQALL (Escherichia coli, UniProt P23836)","Sort-seq, refers to: YFP reporter",E. coli,"PhoQ-PhoP variant library, added: 10 µM Mg2+","baseline: high Mg2+ state, higher = stronger signaling",fold induction,2.34

# A few entries again (block 1):
target,assay,remaining binding [%]
"Tyrosine-protein kinase ABL1, phosphorylated (ABL1, Homo sapiens, UniProt P00519, Y253F)",cell-free assay,80
"Cyclin-dependent kinase 2 (CDK2, Homo sapiens, UniProt P24941)",cell-free assay,73
"Tyrosine-protein kinase ABL1, phosphorylated (ABL1, Homo sapiens, UniProt P00519)",cell-free assay,79
"Ephrin type-B receptor 2 (EPHB2, Homo sapiens, UniProt P29323)",cell-free assay,95
"Ribosomal protein S6 kinase alpha-3, C-terminal kinase domain (RPS6KA3, Homo sapiens, UniProt P51812)",cell-free assay,91
